Results collected from several papers.
Each numbered part is a random draw from the data of one study; scales do not carry over between parts.
Chain of UniProt Q96L34 (whole entry, looked up): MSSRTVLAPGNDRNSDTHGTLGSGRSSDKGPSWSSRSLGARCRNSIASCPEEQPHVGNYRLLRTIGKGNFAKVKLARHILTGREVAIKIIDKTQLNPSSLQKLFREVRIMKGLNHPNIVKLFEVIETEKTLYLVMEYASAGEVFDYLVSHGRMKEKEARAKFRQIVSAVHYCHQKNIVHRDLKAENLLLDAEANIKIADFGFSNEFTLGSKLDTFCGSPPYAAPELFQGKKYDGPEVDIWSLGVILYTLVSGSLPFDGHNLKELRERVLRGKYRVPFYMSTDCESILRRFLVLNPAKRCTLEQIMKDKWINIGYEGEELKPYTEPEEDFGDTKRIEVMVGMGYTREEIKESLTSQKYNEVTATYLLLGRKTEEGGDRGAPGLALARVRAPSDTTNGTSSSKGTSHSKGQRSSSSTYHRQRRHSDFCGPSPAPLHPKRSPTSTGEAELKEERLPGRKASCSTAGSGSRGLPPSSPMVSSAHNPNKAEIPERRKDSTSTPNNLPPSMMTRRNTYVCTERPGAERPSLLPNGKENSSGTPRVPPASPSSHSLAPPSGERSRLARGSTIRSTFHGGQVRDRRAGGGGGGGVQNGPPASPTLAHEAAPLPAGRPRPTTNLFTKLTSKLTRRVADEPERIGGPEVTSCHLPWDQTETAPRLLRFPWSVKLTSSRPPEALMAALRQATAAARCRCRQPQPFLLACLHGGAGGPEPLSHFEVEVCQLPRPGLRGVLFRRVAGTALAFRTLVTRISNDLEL
Chain of UniProt P16234 (whole entry, looked up): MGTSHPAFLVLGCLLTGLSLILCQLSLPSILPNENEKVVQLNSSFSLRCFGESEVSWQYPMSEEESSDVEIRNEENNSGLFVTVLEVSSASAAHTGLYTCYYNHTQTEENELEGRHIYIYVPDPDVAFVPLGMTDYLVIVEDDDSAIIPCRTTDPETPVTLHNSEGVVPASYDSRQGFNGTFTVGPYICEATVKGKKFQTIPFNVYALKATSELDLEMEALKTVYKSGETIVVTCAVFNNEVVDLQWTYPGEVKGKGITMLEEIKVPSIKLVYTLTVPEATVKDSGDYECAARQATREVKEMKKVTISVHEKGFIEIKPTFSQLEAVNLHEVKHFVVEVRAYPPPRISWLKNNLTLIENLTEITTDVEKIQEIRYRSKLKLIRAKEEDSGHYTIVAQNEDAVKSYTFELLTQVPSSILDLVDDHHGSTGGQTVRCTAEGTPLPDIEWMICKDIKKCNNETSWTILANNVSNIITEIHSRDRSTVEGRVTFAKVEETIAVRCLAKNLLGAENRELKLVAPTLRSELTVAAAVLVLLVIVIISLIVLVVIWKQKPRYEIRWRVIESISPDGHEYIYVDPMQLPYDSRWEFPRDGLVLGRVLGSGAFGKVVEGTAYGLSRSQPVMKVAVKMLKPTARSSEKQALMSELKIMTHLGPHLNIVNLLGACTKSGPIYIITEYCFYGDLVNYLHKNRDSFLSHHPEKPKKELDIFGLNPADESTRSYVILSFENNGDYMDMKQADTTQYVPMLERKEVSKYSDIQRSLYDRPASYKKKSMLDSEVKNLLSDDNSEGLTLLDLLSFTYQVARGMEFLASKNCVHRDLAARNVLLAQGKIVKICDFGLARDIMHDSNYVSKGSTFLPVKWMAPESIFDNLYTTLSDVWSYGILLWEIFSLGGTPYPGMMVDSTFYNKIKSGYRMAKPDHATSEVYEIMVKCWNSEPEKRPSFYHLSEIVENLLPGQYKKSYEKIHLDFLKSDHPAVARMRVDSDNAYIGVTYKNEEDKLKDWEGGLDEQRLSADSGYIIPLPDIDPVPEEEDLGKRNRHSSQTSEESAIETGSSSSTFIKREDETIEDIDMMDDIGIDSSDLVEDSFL
Chain of UniProt P35626 (whole entry, looked up): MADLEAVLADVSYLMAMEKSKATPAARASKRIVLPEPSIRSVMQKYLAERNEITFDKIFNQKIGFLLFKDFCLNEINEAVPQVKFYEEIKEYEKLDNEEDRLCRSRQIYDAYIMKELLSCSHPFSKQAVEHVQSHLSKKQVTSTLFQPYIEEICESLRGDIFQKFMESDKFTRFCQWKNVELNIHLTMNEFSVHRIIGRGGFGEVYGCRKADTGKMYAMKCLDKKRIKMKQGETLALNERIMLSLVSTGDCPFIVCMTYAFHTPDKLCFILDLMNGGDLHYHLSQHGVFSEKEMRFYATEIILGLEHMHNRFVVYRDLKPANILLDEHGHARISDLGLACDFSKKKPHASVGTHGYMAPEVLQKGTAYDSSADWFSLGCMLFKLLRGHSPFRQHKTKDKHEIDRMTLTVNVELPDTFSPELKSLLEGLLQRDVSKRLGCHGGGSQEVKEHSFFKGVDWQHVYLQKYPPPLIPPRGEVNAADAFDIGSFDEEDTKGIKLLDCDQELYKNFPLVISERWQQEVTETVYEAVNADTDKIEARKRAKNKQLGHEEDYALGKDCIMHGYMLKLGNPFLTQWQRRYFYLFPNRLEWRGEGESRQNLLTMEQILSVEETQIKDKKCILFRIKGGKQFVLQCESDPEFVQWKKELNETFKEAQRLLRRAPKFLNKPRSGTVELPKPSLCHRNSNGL
Chain of UniProt O14757 (whole entry, looked up): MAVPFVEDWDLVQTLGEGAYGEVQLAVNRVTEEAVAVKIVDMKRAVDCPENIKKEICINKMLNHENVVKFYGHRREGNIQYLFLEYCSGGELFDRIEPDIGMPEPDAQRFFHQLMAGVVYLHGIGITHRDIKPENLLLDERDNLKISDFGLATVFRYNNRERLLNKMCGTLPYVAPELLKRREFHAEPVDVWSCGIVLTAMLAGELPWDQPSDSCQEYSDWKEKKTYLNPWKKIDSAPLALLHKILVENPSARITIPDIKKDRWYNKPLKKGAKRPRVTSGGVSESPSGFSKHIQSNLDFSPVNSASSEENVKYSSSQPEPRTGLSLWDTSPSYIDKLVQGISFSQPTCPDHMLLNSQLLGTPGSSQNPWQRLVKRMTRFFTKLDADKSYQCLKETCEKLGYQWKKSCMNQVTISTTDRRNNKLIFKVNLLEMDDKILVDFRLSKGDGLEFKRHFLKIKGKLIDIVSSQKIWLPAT
Chain of UniProt P35590 (whole entry, looked up): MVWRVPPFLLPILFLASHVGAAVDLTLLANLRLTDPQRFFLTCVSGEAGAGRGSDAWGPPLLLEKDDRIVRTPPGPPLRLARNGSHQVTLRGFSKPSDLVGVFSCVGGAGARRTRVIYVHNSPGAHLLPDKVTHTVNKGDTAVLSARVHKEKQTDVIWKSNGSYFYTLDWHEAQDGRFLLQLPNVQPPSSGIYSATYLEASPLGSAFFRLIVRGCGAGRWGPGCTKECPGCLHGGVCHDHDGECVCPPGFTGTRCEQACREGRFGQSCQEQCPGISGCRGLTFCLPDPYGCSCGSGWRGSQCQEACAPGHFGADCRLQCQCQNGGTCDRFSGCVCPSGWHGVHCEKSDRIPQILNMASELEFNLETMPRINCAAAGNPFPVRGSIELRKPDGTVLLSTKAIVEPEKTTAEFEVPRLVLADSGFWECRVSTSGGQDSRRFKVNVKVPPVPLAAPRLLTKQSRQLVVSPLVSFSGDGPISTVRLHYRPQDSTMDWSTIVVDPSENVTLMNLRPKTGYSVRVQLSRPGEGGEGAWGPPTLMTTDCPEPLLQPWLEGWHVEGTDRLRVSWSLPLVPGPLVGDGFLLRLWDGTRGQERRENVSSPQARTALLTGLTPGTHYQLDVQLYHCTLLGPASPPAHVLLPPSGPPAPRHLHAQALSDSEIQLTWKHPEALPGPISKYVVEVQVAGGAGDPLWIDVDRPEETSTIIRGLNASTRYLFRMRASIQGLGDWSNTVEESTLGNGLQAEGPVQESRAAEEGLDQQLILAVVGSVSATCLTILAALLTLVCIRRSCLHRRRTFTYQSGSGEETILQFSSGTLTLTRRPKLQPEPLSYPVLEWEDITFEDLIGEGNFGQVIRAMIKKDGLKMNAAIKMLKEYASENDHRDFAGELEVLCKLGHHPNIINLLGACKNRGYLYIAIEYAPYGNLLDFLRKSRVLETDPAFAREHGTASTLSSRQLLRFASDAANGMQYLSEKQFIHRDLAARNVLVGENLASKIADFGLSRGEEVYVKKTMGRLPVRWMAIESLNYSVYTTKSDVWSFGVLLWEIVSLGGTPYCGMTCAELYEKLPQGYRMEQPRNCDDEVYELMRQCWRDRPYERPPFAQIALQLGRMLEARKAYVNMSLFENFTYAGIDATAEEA
Chain of UniProt P11802 (whole entry, looked up): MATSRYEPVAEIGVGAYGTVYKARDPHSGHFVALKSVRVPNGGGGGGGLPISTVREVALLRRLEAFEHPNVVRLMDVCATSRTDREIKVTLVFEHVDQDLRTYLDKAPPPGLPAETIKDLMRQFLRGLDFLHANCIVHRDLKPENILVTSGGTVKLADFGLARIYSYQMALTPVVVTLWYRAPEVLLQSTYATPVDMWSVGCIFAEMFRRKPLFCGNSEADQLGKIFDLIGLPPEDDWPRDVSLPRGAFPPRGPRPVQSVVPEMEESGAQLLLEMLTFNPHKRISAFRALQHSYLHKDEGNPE

Sample 1
Target: RNA binding protein fox-1 homolog 2, RRM domain, GST-SBP tag (RBFOX2, Homo sapiens, UniProt O43251-10, residues 100-194)
Technique: RNA Bind-n-Seq
Molecule type: RNA
Sample: in vitro
Concentration: 365 nM
Notes: natural RNA segment, single round, ends assumed
Relative to: no-protein control
Reading: higher = stronger binding
Quantity: RBNS enrichment (R)
All sequences stand within: GGGAGUUCUACAGUCCGACGAUC … UGGAAUUCUCGGGUGCCAA
Target sequence (chain): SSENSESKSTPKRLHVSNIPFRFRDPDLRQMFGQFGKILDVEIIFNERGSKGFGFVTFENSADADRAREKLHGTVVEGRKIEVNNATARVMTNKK
CCCUCUGUACUAAUGACAUUUACAAUUCUAAAAUUUUAUGAAAUUGAAAUGAAAACUAAGAGUUGUAAAACAAAGUAUUUUCUUGGGAAUAUUACUUUAACAUUCAGAUG: 0.573
CACAAGGAGGCAUGCUUGCCCUUCUCCUUGGGAUGGCAGCUGGUGAGCUGAGGAGGCUGGCCUAGAGGAAAAAAGGCAGCAGACAGUGAAGAGGCCUUCCUCCCUCCCUG: 11
GGUGCCUGGGACAUUCCUGGAGGGAUCAUGCCUGGCCGCUACAACCAGGAGGUGGGACAGACCAUCCCCGUCUUCGCCUUCCUCGGAGCCAUGGUGGCCCUGGCCUUCUU: 0.273
GUAGGAGUGGACCCUGCCACUGGCCCCAUCGGAGCCGGAAAGCCAAGGAGGAAGGGACAGAGCUAGAAUCAGUGCCACUUUGCAGCAGCAAGGAUCCAGACGAAGUGGAA: 0.523
UUCAUUCUCGUGAGUCAUUUAAAUGUGUACAAUGUACACACUGGUACUUAGAGUUUCUGUUUGAUUCUUUUUUAAUAAACUACUCUUUGAUUUAAUUGUUUGGUGUAAGC: 0.49
GGCCUCGGGCCUGACCCGUCCACACAGGGCCGUGUCAACAGCAGCGACUCAAGGGACGUGUGUACAUAUGUAAAUGAGAAAUAGAGACGUGUCAACAGAUGCAUUCAUUU: 0.517
UGGAACUAUAAUUCAGCAUCUUUUACUGCAUUUAAAGAUGGGAGCAAACUUUUGUAUGGUUGGGAGAUGUGGCUGGAAAGUACUUUGGAAAAUAUACAAUCAAGAUAUUU: 2.25
GGACGAGUUCAGGUUUGUUUUUGCAGCAGAUUCCGUCGUUCUUACUGAGUCUGCAGCGGGGGAGUGAACAAGUGUGCAGAUGUAAGUUCUUACAUGAUAAGCAGAUUGAA: 0.283

Sample 2
Cell line: A-375
Concentration: 100 µM
Time: 36 h
Quantity: viability
OCCOCCN1CCN(C(c2ccccc2)c2ccc(Cl)cc2)CC1 (centres unmarked): 61.5%
O=C1C(O)=C([C@H]2CC[C@H](c3ccc(Cl)cc3)CC2)C(=O)c2ccccc21: 17.1%
CO[C@@H]1[C@@H](O[C@@H]2O[C@H](C)[C@@H](O[C@H]3C[C@@](C)(O)[C@@H](O)[C@H](C)O3)[C@H](N(C)C)[C@H]2O)[C@@H](CC=O)C[C@@H](C)[C@@H](O[C@H]2CC[C@H](N(C)C)[C@@H](C)O2)/C=C/C=C/C[C@@H](C)OC(=O)C[C@H]1OC(C)=O: 62.8%

Sample 3
Read-out: AlphaScreen signal
Technique: AlphaScreen counter screen
Sample: His6 peptide without bromodomain
Concentration: 50 µM
Notes: assay interference check
Quantity: inhibition
O=C1NC(=O)C(=Cc2ccc(-c3ccc(Cl)c(Cl)c3)o2)S1: 3.45%
O=C(O)c1cc(NCc2cc(O)ccc2O)ccc1O: 9.35%
CN(C)CCCn1cc(C2=C(c3c[nH]c4ccccc34)C(=O)NC2=O)c2ccccc21.Cl: 86.1%
O=[N+]([O-])c1ccc(-c2nc(-c3ccc(F)cc3)c(-c3ccncc3)[nH]2)cc1: 57%

Sample 4
Structure (SMILES): CCC(=O)N[C@H]1CC[C@@H](C(=O)N(C)c2ccc(-c3nc4ccccc4o3)cc2)C1
Technique: competition with immobilised ligand
Concentration: 1 µM
Quantity: remaining binding
GRK3 (Homo sapiens, UniProt P35626); cell-free assay: 80%
Tyrosine-protein kinase ABL1, phosphorylated (ABL1, Homo sapiens, UniProt P00519, E255K); binding: 75%
FLT3 (Homo sapiens, UniProt P36888, D835H); cell-free assay: 95%
FLT3 (Homo sapiens, UniProt P36888, R834Q); cell-free assay: 100%
CDK4 (Homo sapiens, UniProt P11802); cell-free assay: 78%
DYRK1B (Homo sapiens, UniProt Q9Y463); cell-free assay: 100%
CHEK1 (Homo sapiens, UniProt O14757); cell-free assay: 100%
MAP4K3 (Homo sapiens, UniProt Q8IVH8); cell-free assay: 85%
BUB1 (Homo sapiens, UniProt O43683); cell-free assay: 74%
MARK4 (Homo sapiens, UniProt Q96L34); cell-free assay: 100%
TIE1 (Homo sapiens, UniProt P35590); cell-free assay: 100%
Tyrosine-protein kinase ABL1, phosphorylated (ABL1, Homo sapiens, UniProt P00519, Q252H); cell-free assay: 78%
PDGFRA (Homo sapiens, UniProt P16234); cell-free assay: 85%

Sample 5
Cell line: mouse MPNST tumor cells
Technique: high-content nuclear imaging
Item: cell number
Concentration: 10 µM
Time: 12 h
Notes: mean of 2 replicates
Relative to: plate mean
Reading: higher = more cells
Quantity: nuclei count
C=CCNC(=O)c1cc([N+](=O)[O-])cc2c(=O)[nH]c(Nc3ccc(Cl)c(Cl)c3)nc12: -0.252 z-score
Cc1onc(-c2ccccc2Cl)c1C(=O)N[C@@H]1C(=O)N2[C@@H]1SC(C)(C)[C@@H]2C(=O)O: 1.19 z-score
C[N+](C)(C)CCCCCC[N+](C)(C)C: 0.651 z-score
c1ccc2c(Oc3nc(Nc4ccc(N5CCOCC5)cc4)c4ncn(C5CCCCC5)c4n3)cccc2c1: 1.57 z-score

For quick reference, copied from above (sample 3):
CN(C)CCCn1cc(C2=C(c3c[nH]c4ccccc34)C(=O)NC2=O)c2ccccc21.Cl: 86.1%
O=C1NC(=O)C(=Cc2ccc(-c3ccc(Cl)c(Cl)c3)o2)S1: 3.45%
O=[N+]([O-])c1ccc(-c2nc(-c3ccc(F)cc3)c(-c3ccncc3)[nH]2)cc1: 57%
